Experimental data of several laboratories.
Each numbered part is a random draw from the data of one study; scales do not carry over between parts. Positions count from the first letter of the parent shown.

Sample 1
Target: CCNA1, cyclin fold, Cln2 fusion (human)
Technique: yeast growth competition, sequencing
Sample: yeast
Notes: weak parent motif
Baseline: not given
Direction: higher = stronger binding
Starting sequence: GMNC docking peptide (human); KNAKRNLSSEFAN
Substitution	normalised enrichment score
L7A	0.335
S8N	0.832
F11L	0.283
N2W	0.449
K4W	-0.00565
L7D	0.0694
F11K	-0.124
R5V	-0.459
S8M	1.24
A3I	0.754
R5D	-0.162
F11Y	0.313
N2P	0.708
S8K	0.169
A12H	0.298
F11P	-0.459
A12E	0.753
S8H	0.349
N6T	-0.000295
A3K	0.106
A12N	1.43
N2H	0.475
L7V	0.341
A3L	-0.0177
A12T	0.713

Sample 2
Target: Fragile X messenger ribonucleoprotein 1, C-terminal low-complexity region (Fmr1, Mus musculus, UniProt P35922)
Technique: RNA Bind-n-Seq
Molecule type: RNA
Sample: in vitro
Concentration: 200 nM
Notes: whole 134-nt RNA, ends assumed
Together with: 150 mM KCl
Baseline: input library
Direction: higher = stronger binding
All sequences stand within: GGGAGUUCUACAGUCCGACGAUC … UGGAAUUCUCGGGUGUCAAGG
Strand	log2 enrichment
CACAGACAACACGCACCCCCACAGACACAGAGGGAAGGGGUUGGGAUGGGGACAGGGUGCACAGCAGGGCGGGGUAGGACCCCAGCCCCU	1.4
UGGGGGGUGGAUUUUGUUUAUUUUUUUAGCUCAUUUCCAGGGGUGGGAAUUUUUUUUUAAUAUGUGUCAUGAAUAAAGUUGUUUUUGAAA	0.509
CCUCAAGUCCUGUGCUACACAUCGUAUGUACCGAAUCGGAAAGGUGGUUUGGAAAGUAUUAUGUUACGCCGUUCGGAUCUGCACUUCCAG	-0.355
UGGAAGUGGCGCUGGCGCCUGAAGAGUUGGAGCUGGAUCCUAUGGCCAUGACCCAGAAGUAUGAGGAGCAUGUGCGGGAGCAGCAGGCUC	0.396
UUGACCUAGAGGAUGAGACCAUUGAUGCCGAGGUCAUGAACUCUCUAGCAGUUACUAUGGAUGACUUCCGGGUAAGGACCACACCCGUGC	-2.01
ACCAUGCAGGUGGGCAUCUUUGGGAAGUGGGGCAAGGGGGAAAUAGGGAGGGGGGUAACACUUUGGGAACAGGUGGUCCCAGGUCGUUUC	0.709
UGGGAGGUGGAUUUUGUUUAUUUUUUUAGCUCAUUUCCAGGGGUGGGAAUUUUUUUUUAAUAUGUGUCAUUAAUAAAGUUGUUUUUGAAA	0.301
GCAGGAAGUAAAAACAAAUGGAAAUGCUUCGGAUAGUGGCAGGGGUGGGGGUUGCUAAGGAAAGGGUGGGAUGGGAAAGGGUAAAGAGUU	0.00341
UCAAGUCCUGUGCUACACAUCGUAUGUACCGAAUCGGUUUUUUUGGUGGAAAGGAAAGUAUUAUGUUACGCCGUUCGGAUCUGCACUUCC	-0.431
AGUCCUGUGCUACACAUCGUAUGUACCGAAUCGGUUUUUUGGUUUUUUGGUUUUUUGGAAAGUAUUAUGUUACGCCGUUCGGAUCUGCAC	-0.859
AGUCCUGUGCUACACAUCGUAUGUACCGAAUCGGGGAAAAAAAGGGGUGGGGAGGGGAAAGUAUUAUGUUACGCCGUUCGGAUCUGCACU	0.739
UCCUCAAGUCCUGUGCUACACAUCGUAUGUACCGAAUCGGUGGGUGGUGGGAAAGUAUUAUGUUACGCCGUUCGGAUCUGCACUUCCAGC	0.0792
UGAACAGCUCUGCGCUUUUUGUUACUGUGGGGAAAAAAGUUCCUUAGGACAAGGAGACUUAAAACAAUUCAGAAUAACGCCUGGAUUUAU	-0.776
CUGUGCUACACAUCGUAUGUACCGAAUCGGGAAAAAAAGGGGAAAAAAAGGGAAAAAAAGGGAAAGUAUUAUGUUACGCCGUUCGGAUCU	-0.408

Sample 3
Target: Histone acetyltransferase KAT6A, winged helix 1, GST fusion (KAT6A, Homo sapiens, UniProt Q92794, residues 1-85)
Technique: protein binding microarray
Molecule type: double-stranded DNA, one strand shown
Sample: in vitro
Concentration: not given
Notes: 8-mer, flanks averaged, mean of 2 arrays, mostly near background
Baseline: not given
Direction: higher = stronger binding
Residues (chain): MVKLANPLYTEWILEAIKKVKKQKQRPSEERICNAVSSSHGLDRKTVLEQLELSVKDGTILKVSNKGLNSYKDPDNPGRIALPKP
Strand	E-score
ACCTCAGG	-0.063
AATTTCTC	-0.155
CGCTGATC	0.301
CACGGCGC	0.429
AATTACTG	0.0251
ACCGAAGC	0.105
AAAGGTCG	-0.116
GCCGTCCC	0.346
AGACTTAT	-0.21
AGGAGCGA	0.0321
ACATGAAG	-0.0519
CTGACCGC	0.314
AAGCTACA	-0.0475
AGGGAGGG	-0.226
AACTGTGC	-0.117
AACGTCGT	-0.0281
TAGCTACA	-0.208

Single results of other studies
Molecule	target	test	system	setting	how to read	quantity	value
PhoQ, residues 284 288 289 292 302 303 TTSMTC	PhoP, residues 12 14 15 18 19 QYFSL (Escherichia coli, UniProt P23836)	Sort-seq, measured: YFP reporter	E. coli	PhoQ-PhoP variant library, together with: 10 µM Mg2+	baseline: high Mg2+ state, higher = stronger signaling	fold induction	9.37

Some of these lines once more (sample 2):
Strand	log2 enrichment
UGGAAGUGGCGCUGGCGCCUGAAGAGUUGGAGCUGGAUCCUAUGGCCAUGACCCAGAAGUAUGAGGAGCAUGUGCGGGAGCAGCAGGCUC	0.396
GCAGGAAGUAAAAACAAAUGGAAAUGCUUCGGAUAGUGGCAGGGGUGGGGGUUGCUAAGGAAAGGGUGGGAUGGGAAAGGGUAAAGAGUU	0.00341
UCCUCAAGUCCUGUGCUACACAUCGUAUGUACCGAAUCGGUGGGUGGUGGGAAAGUAUUAUGUUACGCCGUUCGGAUCUGCACUUCCAGC	0.0792
UGGGAGGUGGAUUUUGUUUAUUUUUUUAGCUCAUUUCCAGGGGUGGGAAUUUUUUUUUAAUAUGUGUCAUUAAUAAAGUUGUUUUUGAAA	0.301
UUGACCUAGAGGAUGAGACCAUUGAUGCCGAGGUCAUGAACUCUCUAGCAGUUACUAUGGAUGACUUCCGGGUAAGGACCACACCCGUGC	-2.01
CACAGACAACACGCACCCCCACAGACACAGAGGGAAGGGGUUGGGAUGGGGACAGGGUGCACAGCAGGGCGGGGUAGGACCCCAGCCCCU	1.4
